Assay results collected from several papers.
Each line is one published result; not all experiments were run side by side. Numbers after ± are the reported error.
rep R3428I 3C-like proteinase: Replicase polyprotein 1ab, 3C-like proteinase (rep, Severe acute respiratory syndrome-related coronavirus, UniProt P0C6X7, R3428I)

SMILES	target	test	test system	conditions	IC50
COc1cc(/C=C/C(=O)OC[C@H](NC(=O)/C=C/c2ccccc2)C(=O)NC2CCCCC2)cc(OC)c1OC	rep R3428I 3C-like proteinase	enzyme activity, inhibitor, HPLC substrate depletion	–	pH 4.0	170 µM
CC[C@H](CC[C@@H](C)[C@H]1CC[C@H]2[C@@H]3CC=C4C[C@@H](O)CC[C@]4(C)[C@H]3CC[C@]12C)C(C)C	Replicase polyprotein 1ab, 3C-like proteinase (rep, Severe acute respiratory syndrome-related coronavirus, UniProt P0C6X7)	3CLpro cleavage, inhibitor, luciferase reporter	Vero	–	1210 µM
CC(C)C[C@H](NC(=O)[C@@H](NC(=O)CCc1ccccc1)C(C)C)C(=O)N[C@@H](C[C@@H]1CCNC1=O)C(=O)c1nccs1	rep R3428I 3C-like proteinase	enzyme activity, inhibitor, HPLC	–	60 min, 37 °C, added: substrate 111 µM	13 µM
CC[C@H](C(=O)Nc1cc(NC2CCNCC2)ccc1C)n1cc(Cl)cc2nc(SCc3ccc(F)cc3)nc1-2	Replicase polyprotein 1ab, papain-like protease (rep, Severe acute respiratory syndrome-related coronavirus, UniProt P0C6X7)	enzyme activity	–	–	4.62 ± 0.996 µM
CC(C)[C@H](NC(=O)OCc1ccccc1)C(=O)N[C@@H](CCC(=O)O)C(=O)N[C@@H](C[C@@H]1CCNC1=O)C(=O)c1nc2ccccc2s1	rep R3428I 3C-like proteinase	enzyme activity, inhibitor, HPLC	–	60 min, 37 °C, added: substrate 111 µM	> 1600 µM
O=C(/C=C/c1ccccc1)N[C@H](CO)C(=O)NC1CCCCC1	rep R3428I 3C-like proteinase	enzyme activity, inhibitor, HPLC substrate depletion	–	pH 4.0	> 1600 µM
COc1c(C)c2c(c(O)c1C/C=C(\C)CCC(=O)O)C(=O)OC2	Replicase polyprotein 1ab, papain-like protease (rep, Severe acute respiratory syndrome-related coronavirus, UniProt P0C6X7, E1707R)	protease activity, inhibitor	–	added: peptide substrate 20 µM	260 ± 21 µM
CC(C)C[C@H](NC(=O)[C@@H](NC(=O)OCc1ccccc1)C(C)C)C(=O)N[C@@H](Cc1c[nH]cn1)C(=O)c1nccs1	rep R3428I 3C-like proteinase	enzyme activity, inhibitor, HPLC	–	60 min, 37 °C, added: substrate 111 µM	260 µM
O=C(/C=C/c1ccccc1)N[C@@H](COC(=O)c1cccnc1)C(=O)NC1CCCCC1	rep R3428I 3C-like proteinase	enzyme activity, inhibitor, HPLC substrate depletion	–	pH 4.0	180 µM
